Measured values gathered from unrelated publications.
Every numbered part comes from another study and shows a few of its results, in no order. Positions count from the first letter of the parent shown.

Set 1 — method: DHFR PCA, deep sequencing; sample: yeast; added: (+)-ABA 1.4 µM; reference: wild-type fitted maximum; reading: higher = stronger binding; measurement: relative binding score
Target: ABI1, truncated, D143A, DHFR fusion (Arabidopsis thaliana)
Notes: methotrexate growth selection, single substitutions
Starting sequence: PYL1, truncated, DHFR fusion (Arabidopsis thaliana); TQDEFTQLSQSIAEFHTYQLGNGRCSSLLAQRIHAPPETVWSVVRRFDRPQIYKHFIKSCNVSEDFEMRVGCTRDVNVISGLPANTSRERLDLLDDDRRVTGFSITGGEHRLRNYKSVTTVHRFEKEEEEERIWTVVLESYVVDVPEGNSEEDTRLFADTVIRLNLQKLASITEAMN; partner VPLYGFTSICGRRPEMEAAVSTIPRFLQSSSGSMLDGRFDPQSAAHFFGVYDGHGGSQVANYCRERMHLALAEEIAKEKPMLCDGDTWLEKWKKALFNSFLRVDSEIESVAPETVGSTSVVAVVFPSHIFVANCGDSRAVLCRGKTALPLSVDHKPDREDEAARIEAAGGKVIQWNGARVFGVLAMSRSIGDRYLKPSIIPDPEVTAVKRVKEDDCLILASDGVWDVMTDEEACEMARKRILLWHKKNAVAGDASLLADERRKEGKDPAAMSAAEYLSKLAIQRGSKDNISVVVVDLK
Change = I33Q; result = -0.289%
Change = Q51P; result = -11.9%
Change = P50K; result = -2.1%
Change = L94V; result = 7.76%
Change = D75Y; result = 53.5%
Change = A170H; result = -4.87%
Change = P36Y; result = 13.5%
Change = T106M; result = 58.8%
Change = R111Y; result = 4.48%
Change = V136N; result = 4.31%
Change = P37Q; result = 2.13%
Change = G71K; result = -10.9%
Change = T1L; result = 60.8%
Change = H55L; result = 66.3%

Set 2 — method: protein-binding microarray; molecule type: double-stranded DNA, one strand shown; sample: in vitro; concentration: 2200 nM top; notes: 60-bp whole probe; added: salmon DNA 0.4 mg/ml; reference: random background probes; reading: higher = stronger binding; measurement: fitted relative affinity; all sequences stand within: GCCTAGCAC … GTCTTGATTCGCTTGACGCTGCTG
Target: Interferon regulatory factor 7, full length, phosphomimetic (IRF7, Homo sapiens, UniProt Q92985, residues 1-503, S471D/S472D/S475D/S476D/S477D/S483D/S484D/S487D)
Construct (chain): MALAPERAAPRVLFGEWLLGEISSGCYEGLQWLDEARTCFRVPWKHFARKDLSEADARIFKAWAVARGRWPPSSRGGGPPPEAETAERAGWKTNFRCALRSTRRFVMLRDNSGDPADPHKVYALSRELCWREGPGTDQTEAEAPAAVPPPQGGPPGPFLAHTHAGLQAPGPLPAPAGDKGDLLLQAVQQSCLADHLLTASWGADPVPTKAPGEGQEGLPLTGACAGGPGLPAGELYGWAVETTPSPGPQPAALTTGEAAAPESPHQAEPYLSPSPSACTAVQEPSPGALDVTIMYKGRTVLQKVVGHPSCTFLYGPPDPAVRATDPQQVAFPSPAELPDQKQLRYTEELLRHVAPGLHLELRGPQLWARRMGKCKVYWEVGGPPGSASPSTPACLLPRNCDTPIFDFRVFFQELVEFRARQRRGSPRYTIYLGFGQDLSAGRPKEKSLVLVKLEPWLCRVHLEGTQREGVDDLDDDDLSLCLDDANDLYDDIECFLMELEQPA
Strand = TACGGTCTCCTTATCCTGACGTGCTAG; result = 1.68 z-score
Strand = GACGGTATCGGTCTCGGGGCGTGCTAG; result = -0.0155 z-score
Strand = TCATTTTTTTTATTTATACTGTGCTAG; result = 1.53 z-score
Strand = TGAGATATCAGTATCGATTAGTGCTAG; result = -0.181 z-score
Strand = TTAGGACTGGGGACCGGGTTAGTGCTA; result = -1.02 z-score
Strand = GACGGACTGGGTTTCGCGACGTGCTAG; result = 0.199 z-score
Strand = TCAGGACTGGGGTTTCGGTTAGTGCTA; result = 2.37 z-score
Strand = GACTATTTCAGTTTCGAGACGTGCTAG; result = 5.25 z-score
Strand = TTACGTTTCGGGTTTCGGTTAGTGCTA; result = 9.89 z-score
Strand = TTAGATTTCAGTATAGATTAGTGCTAG; result = 0.106 z-score
Strand = TCAGTTCTGGGAAATATTACTGTGCTA; result = 0.333 z-score
Strand = GACGGTATCAACTTTCGGGACGTGCTA; result = 3.61 z-score
Strand = TTAGAGTTCGGGTTTCGATTAGTGCTA; result = 2.7 z-score
Strand = TCACTTAGGTTTTCTGGTACTGTGCTA; result = 1.71 z-score
Strand = TCACTTTTATTTTTTTTACTGTGCTAG; result = 2.12 z-score
Strand = TTAGGTTTCGGGTATCGGTTAGTGCTA; result = 6.55 z-score
Strand = TCATTTCTGAATGTCCTACTGTGCTAG; result = 2.31 z-score

Set 3 — method: RNA Bind-n-Seq; molecule type: RNA; sample: in vitro; concentration: 365 nM; reference: no-protein control; reading: higher = stronger binding; measurement: RBNS enrichment (R)
Target: RNA binding protein fox-1 homolog 2, RRM domain, GST-SBP tag (RBFOX2, Homo sapiens, UniProt O43251-10, residues 100-194)
Notes: natural RNA segment, single round, ends assumed
All sequences stand within: GGGAGUUCUACAGUCCGACGAUC … UGGAAUUCUCGGGUGCCAA
Construct (chain): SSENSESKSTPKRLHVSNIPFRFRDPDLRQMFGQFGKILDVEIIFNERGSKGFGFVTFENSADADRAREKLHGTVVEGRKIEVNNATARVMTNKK
Strand = CGGAACAUCUGGCCCAGCAGGCCCAGACUGUAUCCAUCCAAGUUCCCGUUGUAUCCAGAGUUCUUAGAGCUUGUGUCUAAAGGGUAAUUCCCCAACCCUUCCUUAUGAGC; result = 0.353
Strand = CAGAAACUUCUCUGACACCCAUUCACCAGGGUGCUGAGAUAGGAGAAAGUGCUCAUUUAUAAUGUGUAUUCUGUGCAGCUGUUCUCAGACAAGACCGGAUCUUGUCAUCU; result = 0.233
Strand = GGAACUAAGAGCUUAGAAGGAGGCAGACCGGGAAGUAGGCCAUGGCCAGGGGCAGGAAAUGAAGCCCUGCUGUCGGUCACCUCUACUAAAUCAAGCAAAUGGUCCUCUAU; result = 0.638
Strand = AUUAAAGGCAUGUGCCACUAUGCAAGUUUAUGUGGUGCUGGGCACAGAACCCAGGGCUUAAUGCGUGGCAGCUAAGCACUCUAUCAACUGAGUUACAUCUCCAUCCUGUA; result = 6.44
Strand = UGCUAGAUUCACCUCACCCCGGGCAGGAGUGGGGAUGUGGGCGCUCUGUGGUCCUCCCCUCCUGACCCAGGCCUCUGUGGCAUGCUGCAAGGAUCAGAGCCAGACACCAG; result = 2.81
Strand = CCGAGUGACGGUUUCCCUUGCACUAGGCUGAACCUAUAGUAUAGAAAUAUUAUCUAUUUUAUUACCUUGAAUAUUUAAUAUUUUUCACUGGGAGGUUUGAAGCUUACAAA; result = 0.43
Strand = AGCCAGUAAACCCAUCCCCCCUGAGCCAGCUGCAGAGAAUGGAGCCCAAACAGAUGUUCUGGGUGCGAGCCCGGGGCUAUAUUGGCGAGGGCGACAUGAAGAUGCACUGC; result = 0.182
Strand = UCGGAGCGGAGCAGGGUAGGGACCGUGUACAGCUUGAUAACCCUUAAUAAAAAGGGAGUUUGACCAGCUUCUUGUUGUCUCGCGCGGCUAGAAUCCUGGGAACAAGAGAA; result = 1.26
Strand = CUUUGAGAAAAAAGAAAUAGAAACUUACUUGAUGCAGAAUGGAUAUUUAUAUUUCUGCUUGCACCAUUUCCAUAGCAGCUGACAAAGGCAAAAUCAUGAAAUAGAAUCAU; result = 0.516
Strand = AAACAUCACCUAUUUAAUGUUUUUAAUCACAUUUUGUAUGGAGUUAAAUAAAGUACAGUGCUUUUGUUAUAUUUUGGUGUACUUGUUACUUUCACUGAUUGUUGAUGAAU; result = 0.723
Strand = UCCUCACCGCACGGCACAUCUGAGAGAUGGACCCUGGCAGAGCUCCUGAGAGUGUGAGGUCAUCAGAACCCACCUGCCACUGAGGCCAGUGAAGGUCUCAGACCAAGGGG; result = 2.17
Strand = CAAAAUGACCCAACGAUGUCCACACACCACCAAAACCCAGCCAAUGGGCCACCUCUUCCUCCAAGCCCAGAUGCAGAGAUGGUCAUGGGCAGCUGGAGGGUAGGCUCAGA; result = 0.266

Set 4 — target: CRIPT, C-terminal peptide; method: DHFR complementation, deep sequencing; sample: yeast; reference: wild type; reading: higher = weaker binding; measurement: binding free energy change
Notes: single substitutions, model-inferred values
Starting sequence: ERBIN, PDZ domain 1 (human); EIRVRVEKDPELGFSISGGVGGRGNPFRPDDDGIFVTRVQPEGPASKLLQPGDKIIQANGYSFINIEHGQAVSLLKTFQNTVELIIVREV; partner TKNYKQTSV
Change = E1S; result = 0.115 kcal/mol
Change = G60E; result = 0.0605 kcal/mol
Change = Q70G; result = -0.119 kcal/mol
Change = G19F; result = 1.23 kcal/mol
Change = I34W; result = 0.53 kcal/mol
Change = Q50W; result = -0.0186 kcal/mol
Change = P29D; result = -0.0504 kcal/mol
Change = R23G; result = -1.66 kcal/mol
Change = K47S; result = 0.053 kcal/mol
Change = L49I; result = -0.217 kcal/mol
Change = F14A; result = 0.135 kcal/mol
Change = K8P; result = 0.525 kcal/mol
Change = E67S; result = -0.061 kcal/mol

Set 5 — target: CCNE2, cyclin fold, Cln2 fusion (human); method: yeast growth competition, sequencing; sample: yeast; notes: strong parent motif; reference: not given; reading: higher = stronger binding; measurement: normalised enrichment score
Starting sequence: BRCA2 docking peptide (human); PSIKRNLLNEFDR
Change = E10S; result = 0.884
Change = P1L; result = 1.23
Change = K4R; result = 1.35
Change = S2G; result = 1.55
Change = K4V; result = 2.33
Change = D12G; result = 1.73
Change = L8G; result = 0.306
Change = N9V; result = 0.737
Change = F11T; result = -0.224
Change = D12S; result = 2.41
Change = D12F; result = 1.44
Change = I3N; result = 0.271
Change = S2M; result = 1.1
Change = I3H; result = 2.08
Change = D12W; result = 2
Change = S2Y; result = 0.934
Change = K4P; result = 0.411
Change = I3Y; result = 3.83
Change = S2W; result = 0.343
Change = I3F; result = 2.62
Change = N9T; result = 1.36
Change = R13K; result = 1.22
Change = S2C; result = 1.26
Change = D12Q; result = 2.07
Change = P1G; result = 1.62

Set 6 — method: protein binding microarray; molecule type: double-stranded DNA, one strand shown; sample: in vitro; concentration: not given; reference: not given; reading: higher = stronger binding; measurement: E-score
Target: Histone acetyltransferase KAT6A, both winged helices, GST fusion (KAT6A, Homo sapiens, UniProt Q92794, residues 1-181)
Notes: 8-mer, flanks averaged, mean of 2 arrays, mostly near background
Construct (chain): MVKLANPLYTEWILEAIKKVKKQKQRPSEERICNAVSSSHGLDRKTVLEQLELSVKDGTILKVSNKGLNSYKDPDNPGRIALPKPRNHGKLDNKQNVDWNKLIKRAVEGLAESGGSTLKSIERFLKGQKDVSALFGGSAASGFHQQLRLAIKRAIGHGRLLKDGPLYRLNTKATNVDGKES
Strand = CTTGCGTA; result = 0.101
Strand = CTTCTGGC; result = -0.131
Strand = AACGTCTA; result = -0.0373
Strand = AGAACTAC; result = -0.0439
Strand = CTAACGGC; result = 0.217
Strand = GTCAATGA; result = -0.0452
Strand = GAGTCTCC; result = 3e-05
Strand = CGAAGCTA; result = 0.093
Strand = CAGTCCTC; result = -0.149
Strand = CGTATTCC; result = 0.0719
Strand = CACAACGG; result = 0.131
Strand = AGGCTTCA; result = -0.0203
Strand = CAACCAAC; result = -0.102
Strand = AGCCCCTC; result = -0.124
Strand = CGAGGAGC; result = 0.00487
Strand = AAAAAGGG; result = -0.138
Strand = ACAGTGCG; result = 0.158
Strand = CCTGAGAG; result = -0.244
Strand = CGGAGGGC; result = 0.168
Strand = AGAGGGGA; result = -0.212
Strand = CCTTAAGG; result = -0.218
Strand = CATCTATA; result = 0.0278
Strand = GCGCGGAA; result = 0.332

Further values, each from its own experiment
Substance = PhoQ, residues 284 288 289 292 302 303 GNNTDL; target = PhoP, residues 12 14 15 18 19 AGCRL (Escherichia coli, UniProt P23836); assay = Sort-seq, refers to: YFP reporter; test system = E. coli; conditions = PhoQ-PhoP variant library, added: 10 µM Mg2+; how to read = reference: high Mg2+ state, higher = stronger signaling; measurement = fold induction; result = 2.79
